Published values of several laboratories.
Each numbered part is a random draw from the data of one study; scales do not carry over between parts. Substitutions count along the parent as printed.

Set 1 — method: universal PBM; form: double-stranded DNA, one strand shown; sample: in vitro; concentration: 600 nM; direction: higher = stronger binding
Target: Sal-like protein 4, full length isoform A (SALL4, Homo sapiens, UniProt Q9UJQ4, residues 1-1053)
Chain of UniProt Q9UJQ4 (whole entry, looked up): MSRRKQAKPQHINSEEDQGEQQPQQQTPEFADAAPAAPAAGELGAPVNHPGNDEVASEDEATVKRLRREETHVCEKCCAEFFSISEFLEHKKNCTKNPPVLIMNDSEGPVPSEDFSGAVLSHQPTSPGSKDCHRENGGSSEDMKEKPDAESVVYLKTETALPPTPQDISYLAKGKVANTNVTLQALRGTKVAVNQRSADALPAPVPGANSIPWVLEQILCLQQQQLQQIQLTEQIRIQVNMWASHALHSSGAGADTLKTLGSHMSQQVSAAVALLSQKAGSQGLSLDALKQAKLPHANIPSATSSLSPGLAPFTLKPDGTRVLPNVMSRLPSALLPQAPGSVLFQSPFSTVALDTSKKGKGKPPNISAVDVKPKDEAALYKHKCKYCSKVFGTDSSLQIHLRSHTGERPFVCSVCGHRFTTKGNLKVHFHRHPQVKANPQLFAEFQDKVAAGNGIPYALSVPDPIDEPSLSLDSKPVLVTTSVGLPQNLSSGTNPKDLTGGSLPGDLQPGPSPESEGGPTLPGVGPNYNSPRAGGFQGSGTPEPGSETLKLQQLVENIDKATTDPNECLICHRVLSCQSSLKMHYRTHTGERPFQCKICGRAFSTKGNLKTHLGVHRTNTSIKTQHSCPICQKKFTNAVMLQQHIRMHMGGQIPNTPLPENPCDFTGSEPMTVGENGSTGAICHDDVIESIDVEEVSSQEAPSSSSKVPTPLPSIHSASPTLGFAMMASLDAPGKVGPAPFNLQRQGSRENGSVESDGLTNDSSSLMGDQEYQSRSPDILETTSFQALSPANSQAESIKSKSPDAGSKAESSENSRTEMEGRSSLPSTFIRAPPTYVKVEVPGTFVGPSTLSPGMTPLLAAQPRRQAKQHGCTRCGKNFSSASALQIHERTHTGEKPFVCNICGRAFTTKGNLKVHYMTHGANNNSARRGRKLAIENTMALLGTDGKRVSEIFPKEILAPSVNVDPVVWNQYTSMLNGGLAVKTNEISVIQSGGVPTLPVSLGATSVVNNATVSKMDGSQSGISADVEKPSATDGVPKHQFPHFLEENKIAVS
Setting: 8-mer, flanks averaged, mean of replicates
Oligonucleotide | E-score
AGGGGCAA | -0.174
TCCAGAGA | -0.145
GCTAGGCA | -0.0995
CCGAACGC | -0.156
AGCAATAC | 0.213
AGCGTCCC | -0.164
ATTGTACG | 0.15
CCACTTCG | -0.142
CATGAGAA | 0.17
GAGGGTCA | -0.23
AATTTCCC | 0.136
GTCCATTA | 0.178
ACAATCGT | 0.21
ATACCTCG | 0.175
GCTAGGTA | 0.0125
GTGAGATA | 0.198
ACCACAAT | 0.0455
CGTGACAG | -0.111
ACCCCCCG | -0.291
GTAGCAGA | 0.00302
ACGGTTGC | -0.203
TCACGAGA | -0.198
ACCCAAGT | -0.0516
GTTTTACA | 0.103
AGCGTAGG | -0.218

Set 2 — method: RNA Bind-n-Seq; form: RNA; sample: in vitro; concentration: not given; reference: input RNA pool; direction: higher = stronger binding
Target: RING finger protein unkempt homolog, zinc fingers 1-6, GST-SBP tag (UNK, Homo sapiens, UniProt Q9C0B0, residues 30-357)
Chain of UniProt Q9C0B0 (30-357, looked up): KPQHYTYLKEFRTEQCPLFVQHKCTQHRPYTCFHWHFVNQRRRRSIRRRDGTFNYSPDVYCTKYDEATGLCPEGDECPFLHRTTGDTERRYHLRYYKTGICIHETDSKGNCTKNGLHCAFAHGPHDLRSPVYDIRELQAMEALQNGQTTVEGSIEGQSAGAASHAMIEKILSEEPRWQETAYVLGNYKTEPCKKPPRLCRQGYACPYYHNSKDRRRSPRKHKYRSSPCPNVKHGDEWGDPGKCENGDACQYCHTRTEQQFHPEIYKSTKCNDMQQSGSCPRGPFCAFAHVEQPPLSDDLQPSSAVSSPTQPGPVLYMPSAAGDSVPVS
Setting: RNA with constant flanks, human-mouse chimeric sites, ends assumed
All sequences stand within: GGGAGUUCUACAGUCCGACGAUC … CAACAGAGGAUUGAGCAUCA
Oligonucleotide | bound/input enrichment
GGAAGCACAAUGAUGGAGAUUGAUGGUGACAAAGGCAAGCAGGGCGGGCCCACCUACUACAUAGACACCAAUGCCCUCCGCGUGCCCAGGGAGAAUAUGGAGGCCAUCUCACCACUCAAG | 0.195 ratio
GAAUCCUACUCAGGCGGAUUUUGCAACACCAAGCUCACAGCAGCAGCAUCUUAGUCACAGUAGGGUAGCUUUAGGGCUCUGUGGCCAGGGUUUUAUUCACAUGCAGGUUUGGAAAAUGUA | 0.65 ratio
AAAUCGUGUGUGUCCAAUAUUGAAAGUGCUUUAUCUACACUCCAGUAUGUAAGCAGUAUAGUAGUUUCUUUAGAGAAUAGGUCAGCCAUUGUAAAGUAUAAUGCAAGCUCAGUCACUCCA | 27.7 ratio
UUUGUAAUAUCUGUAAAAGGUUCCCCCCCCCUACUGUCAAAAAAUAUGCAUGUAUAGUAAUUAGGACUUCAUUCCUCCAUGUUUUCUUCCCUUAUCUUACUGUCAUUGUCCUAAAACCUU | 2.18 ratio
AGAGCCCAGGAUGUUGAUGCUACAAAUCCAAAUUAUGAAAUUAUGUGUAUGAUCAGAGACUUCAGAGGAAGUUUGGAUUACAGACCCCUAACAACAGCAGAUCCUAUUGAUGAACAUAGG | 0.562 ratio
CUCUUUGAAUCAUUCAAGAGUUUUGAAGGUCUCUUUUAUUUUCUGGGGUCCAUUGUUAACUUUAGCCAGGACCCAGAUGUGCACUUUAAAUAUAUUCAGGCAGCUUGCAAGACUGGGCAA | 0.322 ratio
GAGCCAAGCCGGCAGUUUGUAAAGGACUCAAUUCGGCUGGUUAAAAGAUGCACCAAACCCGACAGAAAAGAAUUCCAGAAGAUUGCCAUGGCAACAGCUAUAGGAUUUGCUAUCAUGGGA | 0.167 ratio
CUGAAAAACACAGAUAUCAAAGUUGUUGACUUUGGAAGUGCAACGUAUGACGACGAACAUCACAGUACUUUGGUGUCUACCCGGCACUACAGAGCUCCAGAGGUCAUUUUGGCUUUAGGU | 0.206 ratio

Set 3 — target: UBE2N UBC core domain (UniProt P61088); method: yeast two-hybrid; sample: yeast; setting: mostly zero background; reference: not given; direction: higher = stronger interaction
B1: TRIM54 RING domain (UniProt Q9BYV2); chain SMDNLEKQLICPICLEMFSKPVVILPCQHNLCRKCANDVFQASNPLWQSRGSTTVSSGGRFRCPSCRHEVVLDRHGV
B2: RLIM RING domain (UniProt Q9NVW2); chain SFGENDALKTCSVCITEYTEGNKLRKLPCSHEYHVHCIDRWLSENSTCPICRRAVLASGNRE
B3: RNF166 RING domain (UniProt Q96A37); chain GDSGLEAQYTCPICLEVYHRPVAIGSCGHTFCGECLQPCLQVPSPLCPLCRLPFDPKKVDK
B4: RNF183 RING domain (UniProt Q96D59); chain EQQGRELEAECPVCWNPFNNTFHTPKMLDCCHSFCVECLAHLSLVTPARRRLLCPLCRQPTVLASGQP
B5: RNF187 RING domain (UniProt Q5TA31); chain ALPAGPAEAACALCQRAPREPVRADCGHRFCRACVVRFWAEEDGPFPCPECADDCWQRAVEP
Construct (chain): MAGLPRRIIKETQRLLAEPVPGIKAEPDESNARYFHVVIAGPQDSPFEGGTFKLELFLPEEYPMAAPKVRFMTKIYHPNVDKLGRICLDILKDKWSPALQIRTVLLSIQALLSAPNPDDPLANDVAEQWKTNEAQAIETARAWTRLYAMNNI
Molecule | lacZ reporter activity
B1 (TRIM54 RING domain) | 0
PEELAVNNDDCAICWDSMQAARKLPCGHLFHNSCLRSWLEQDTSCPTCRMSLNIADNNR (AMFR RING domain (UniProt Q9UKV5)) | 5040
B2 (RLIM RING domain) | 0
B3 (RNF166 RING domain) | 0
B4 (RNF183 RING domain) | 0
B5 (RNF187 RING domain) | 0

Set 4 — method: DHFR PCA, deep sequencing; sample: yeast; with: (+)-ABA 2500 µM; reference: wild-type fitted maximum; direction: higher = stronger binding
Target: ABI1, truncated, D143A, DHFR fusion (Arabidopsis thaliana)
Setting: methotrexate growth selection, single substitutions
Starting sequence: PYL1, truncated, DHFR fusion (Arabidopsis thaliana); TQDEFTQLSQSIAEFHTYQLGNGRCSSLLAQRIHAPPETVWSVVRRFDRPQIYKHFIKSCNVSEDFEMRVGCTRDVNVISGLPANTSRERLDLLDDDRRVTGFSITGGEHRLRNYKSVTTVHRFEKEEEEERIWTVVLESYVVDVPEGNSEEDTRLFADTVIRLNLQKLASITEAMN; partner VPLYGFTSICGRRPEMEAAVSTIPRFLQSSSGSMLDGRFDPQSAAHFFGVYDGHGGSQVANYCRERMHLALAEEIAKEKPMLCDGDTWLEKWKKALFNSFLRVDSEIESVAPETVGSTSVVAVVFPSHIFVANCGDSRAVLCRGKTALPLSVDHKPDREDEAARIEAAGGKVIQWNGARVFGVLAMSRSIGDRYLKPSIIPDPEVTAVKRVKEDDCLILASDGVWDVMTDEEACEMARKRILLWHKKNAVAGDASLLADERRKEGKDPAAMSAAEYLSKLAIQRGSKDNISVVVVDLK
Substitution | relative binding score
T73D | 92.8%
F15R | 89.2%
N177M | 94.3%
F124Y | 104%
Q2K | 97.4%
T160A | 87.9%
A170D | 78.1%
Y141T | -0.0793%
L156A | 98.5%
R74K | 12.6%
V62G | 82%
V161S | 31.1%
N85E | 96.2%
S27F | 71.2%

Set 5 — target: CCNE1, cyclin fold, Cln2 fusion (human); method: yeast growth competition, sequencing; sample: yeast; setting: strong parent motif; reference: not given; direction: higher = stronger binding
Starting sequence: CDC25A docking peptide (human); PPHRRRLLFACSP
Substitution | normalised enrichment score
P13Q | 1.55
R5H | 1.19
H3R | 1.07
L7M | 0.897
P2W | 1.16
P13A | 1.32
R5Y | 1.39
S12V | 1.63
R4P | 0.916
L8S | 3.44
A10N | 2.34
L8E | 2.57
C11R | 0.465
R6D | 0.487
L8C | 1.36
A10P | 1.54

Excerpt of the above (set 1):
Oligonucleotide | E-score
GTGAGATA | 0.198
ACCACAAT | 0.0455
CGTGACAG | -0.111
ACCCCCCG | -0.291
GTAGCAGA | 0.00302
ACGGTTGC | -0.203
TCACGAGA | -0.198
